Results of several laboratories.
Each line is one published result; not all experiments were run side by side. Numbers after ± are the reported error.

With `CNCc1ccc2c(c1)C[C@H](CNC(=N)N)[C@H]2NC(=O)C(=O)Nc1ccc(Cl)c(F)c1` the IC50 was 0.794 µM (env (Human immunodeficiency virus 1, UniProt Q27Q59); pseudovirus infection, luciferase reporter; TZM-bl; 48 h).
For `C[C@H](Nc1ncnc(N)c1C#N)c1c(-c2ccccc2)[nH]c2c(Cl)cccc2c1=O`, the IC50 was 4.64 µM (Pfeiffer; cell proliferation, CellTiter-Glo).
With `CCCCCCCCCCCCCCCC(=O)N[C@@H](CCC(=O)NCCOCCOCCC(=O)NCCOCCOCCC(=O)NCCCC[C@H](NC(=O)[C@H](CC(=O)O)NC(=O)[C@H](CC(C)C)NC(=O)[C@H](Cc1ccc(O)cc1)NC(=O)[C@H](CCCCN)NC(=O)[C@H](CO)NC(=O)[C@H](Cc1ccc(O)cc1)NC(=O)[C@H](CC(=O)O)NC(=O)[C@H](CO)NC(=O)[C@@H](NC(=O)[C@H](Cc1ccccc1)NC(=O)[C@@H](NC(=O)CNC(=O)[C@H](CCC(N)=O)NC(=O)[C@@H](CO)NC(=O)[C@@H](N)Cc1c[nH]cn1)[C@@H](C)O)[C@@H](C)O)C(=O)N[C@@H](CCCNC(=N)N)C(=O)N[C@@H](CCCNC(=N)N)C(=O)N[C@@H](C)C(=O)N[C@@H](CCC(N)=O)C(=O)N[C@@H](CC(=O)O)C(=O)N[C@@H](Cc1ccccc1)C(=O)N[C@H](C(=O)N[C@@H](CCC(N)=O)C(=O)N[C@@H](Cc1c[nH]c2ccccc12)C(=O)N[C@@H](CC(C)C)C(=O)N[C@@H](CC(C)C)C(=O)N[C@@H](CC(N)=O)C(=O)N[C@H](C(=O)NCC(=O)NCC(=O)N1CCC[C@H]1C(=O)N[C@@H](CO)C(=O)N[C@@H](CO)C(=O)NCC(=O)N[C@@H](C)C(=O)N1CCC[C@H]1C(=O)N1CCC[C@H]1C(=O)N1CCC[C@H]1C(=O)N[C@@H](CO)C(N)=O)[C@@H](C)O)C(C)C)C(=O)O` the AUC(0-t) was 3890 ng·h/mL (rhesus monkey, male, plasma; subcutaneous, 300 µg/kg, day 1, toxicokinetics, mean).
Under “binding enthalpy ΔH°”, `CC(=O)NCCN(CC(=O)NCCN(CC(=O)NCCN(CC(=O)NCCC(N)=O)C(=O)[C@@H](N)Cc1ccccc1)C(=O)[C@@H](N)CCCNC(=N)N)C(=O)[C@@H](N)Cc1ccccc1` is recorded as -13.2 ± 0.406 kcal/mol (HIV-1 TAR RNA; concentration not given, 25 °C).
`CCCOC(=O)N1c2cc(CNC)ccc2[C@H](NC(=O)C(=O)Nc2ccc(Cl)c(F)c2)[C@H]1CNC(=N)N` has an IC80 of 7.98 µM (Human immunodeficiency virus 1; viral infection, Env pseudovirus; TZM-bl, ZM53M.PB12 clade C).
`CC(=O)NCCN(CCC(=O)NCCN(CCC(=O)NCCN(CCC(=O)NCCC(N)=O)C(=O)[C@@H](N)Cc1ccccc1)C(=O)[C@@H](N)CCCNC(=N)N)C(=O)[C@@H](N)Cc1ccccc1`: “binding enthalpy ΔH°” -8.77 ± 0.693 kcal/mol (HIV-1 TAR RNA; concentration not given, 25 °C).
For `F[P-](F)(F)(F)(F)F.OC(Cn1cncn1)(Cn1cc(-[c-]2cccc2)nn1)c1ccc(F)cc1F.[Co+3].c1cc[cH-]c1` (racemic), the motility inhibition was 25% (Trichuris muris; Worminator; adult males and females; 100 µM, day 1).

Repeated from above:
`CCCOC(=O)N1c2cc(CNC)ccc2[C@H](NC(=O)C(=O)Nc2ccc(Cl)c(F)c2)[C@H]1CNC(=N)N` has an IC80 of 7.98 µM (Human immunodeficiency virus 1; viral infection, Env pseudovirus; TZM-bl, ZM53M.PB12 clade C).
